Published values from different studies.
Each line is one published result; not all experiments were run side by side. “And” joins repeats or separate records; there may be more than shown.

SMILES = CN(C)S(=O)(=O)NCC1CCOC2(CCN(C(=O)C(=O)c3ccccc3)CC2)C1 (stereo not shown); target or system = Venezuelan equine encephalitis virus; assay = viral replication; conditions = 40 µM; quantity = inhibition; result = 40%
SMILES = O=C(/C=C/c1ccc(O)c(O)c1/C=C/c1ccc(O)c(O)c1)O[C@H](Cc1ccc(O)c(O)c1)C(=O)O; target or system = Severe acute respiratory syndrome coronavirus 2; assay = cytopathic effect, inhibitor; system = Vero C1008; conditions = 6.25 µM; quantity = inhibition; result = 0%
SMILES = CC(C)N1CCC(NC(=O)c2ccccc2C(F)(F)F)CC1; target or system = Influenza A virus; assay = viral entry; system = A549, H5N1 HA virus-like particles; conditions = 12.5 µM, A/Goose/Qinghai/59/05 HA; quantity = inhibition; result = 37%
SMILES = O=C(O[C@@H]1Cc2c(O)cc(O)cc2O[C@@H]1c1cc(O)c(O)c(O)c1)c1cc(O)c(O)c(O)c1; target or system = Severe acute respiratory syndrome coronavirus 2; assay = cytopathic effect; system = Vero C1008; conditions = 6.25 µM; quantity = inhibition; result = 0%
SMILES = O=C(NCC1CCOC2(CCN(C(=O)C3(c4ccccc4)CCCC3)CC2)C1)c1ccncc1 (stereo not shown); target or system = Venezuelan equine encephalitis virus; assay = viral replication; conditions = 40 µM; quantity = inhibition; result = 40%
SMILES = COc1ccc(C2COc3c(ccc(O)c3OC)C2)c(OC)c1O (stereo not shown); target or system = Rickettsia prowazekii; system = Vero cells; conditions = 6 µM, 72 h; quantity = inhibition; result = > 99%
SMILES = CC(C)=CCc1c(O)ccc(C(=O)/C=C/c2ccc(O)cc2)c1O; target or system = Severe acute respiratory syndrome coronavirus 2; assay = cytopathic effect, inhibitor; system = Vero C1008; conditions = 100 µM; quantity = inhibition; result = 90%
SMILES = Cn1c(C(=O)Nc2ccc(Cl)cc2)cc2c(=O)n3ccccc3nc21; target or system = Severe acute respiratory syndrome coronavirus 2; assay = viral replication, inhibitor, qPCR; system = Vero C1008; conditions = 1 µM; quantity = inhibition; result = 88.2%
SMILES = CN1CCN(C(c2ccccc2)c2ccc(Cl)cc2)CC1 (stereo not shown); target or system = Marburg marburgvirus; assay = viral entry; system = A549; conditions = 12.5 µM; quantity = inhibition; result = ≥ 75%
SMILES = CC(=O)N1CCN(c2ccc(OCC3COC(Cn4ccnc4)(c4ccc(Cl)cc4Cl)O3)cc2)CC1 (stereo not shown); target or system = Enterovirus C; assay = viral replication, refers to: Gaussia luciferase; system = HeLa; conditions = 10 µM, 48 h; quantity = inhibition; result = 83%
SMILES = C=C[C@@](C)(/C=C/c1ccc(O)cc1)CCC=C(C)C; target or system = Severe acute respiratory syndrome coronavirus 2; assay = cytopathic effect, inhibitor; system = Vero C1008; conditions = 6.25 µM; quantity = inhibition; result = 0%
SMILES = O=C(NCCCN1CCCCC1)c1cc(Sc2ccc(Cl)cc2)nc2ccccc12; target or system = SARS-CoV-2; assay = cytopathic effect, cell-based CPE; system = USA_WA1/2020; conditions = round 2, 5-point dilution; quantity = maximal response; result = 98.9%
SMILES = NCC1(O)CCOC2(CCN(C(=O)C3(c4ccccc4)CCCC3)CC2)C1 (stereo not shown); target or system = Venezuelan equine encephalitis virus; assay = viral replication; conditions = 40 µM; quantity = inhibition; result = 70%
SMILES = CCCC1C(=O)N2C(N(C)C)=Nc3ccc(C)cc3N2C1=O (stereo not shown); target or system = Enterovirus C; assay = viral replication, refers to: Gaussia luciferase; system = HeLa; conditions = 10 µM, 48 h; quantity = inhibition; result = 94.1%
SMILES = O=C(N1CCC2(CC1)CC(CNS(=O)(=O)C1CC1)CCO2)C1(c2ccccc2)CCCC1 (stereo not shown); target or system = Venezuelan equine encephalitis virus; assay = viral replication; conditions = 40 µM; quantity = inhibition; result = 50%
SMILES = Cn1cnc(Cn2c(=O)[nH]/c(=N\c3cc4cn(C)nc4cc3Cl)n(Cc3cc(F)c(F)cc3F)c2=O)n1; target or system = Severe acute respiratory syndrome coronavirus 2; assay = viral replication; system = Vero C1008; conditions = 5.716 nM; quantity = inhibition; result = 0%
SMILES = O=C(N1CCC2(CC1)CC(CNS(=O)(=O)c1ccccc1)CCO2)C1(c2ccccc2)CCCC1 (stereo not shown); target or system = Venezuelan equine encephalitis virus; assay = viral replication; conditions = 40 µM; quantity = inhibition; result = 90%
SMILES = CC(C)(C)[C@H](NC(=O)C(F)(F)F)C(=O)N1C[C@H]2[C@@H]([C@H]1C(=O)N[C@H](C#N)C[C@@H]1CCNC1=O)C2(C)C; target or system = SARS-CoV-2; assay = viral replication; system = Vero E6; conditions = 10 µM; quantity = inhibition; result = 118% and 128%
SMILES = NCC1CCOC2(CCN(C(=O)C3(c4ccccc4)CCCC3)CC2)C1 (stereo not shown); target or system = Venezuelan equine encephalitis virus; assay = viral replication; conditions = 40 µM; quantity = inhibition; result = 40%
SMILES = Cc1ccc2c(NC(C)c3ccccc3)nc(N3CCNCC3)nc2c1 (stereo not shown); target or system = SARS-CoV-2; assay = cytopathic effect, cell-based CPE; system = USA_WA1/2020; conditions = round 2, 5-point dilution; quantity = AC50; result = 3.98 µM
SMILES = CS(=O)(=O)NCC1CCOC2(CCN(C(=O)C3(c4ccc(Cl)cc4)CCCC3)CC2)C1 (stereo not shown); target or system = Venezuelan equine encephalitis virus; assay = viral replication; conditions = 40 µM; quantity = inhibition; result = 30%
SMILES = COc1ccc(C[C@@H]2c3cc(Oc4cc(C[C@@H]5c6cc(O)c(OC)cc6CCN5C)ccc4O)c(OC)cc3CCN2C)cc1; target or system = Severe acute respiratory syndrome coronavirus 2; assay = cytopathic effect; system = Vero C1008; conditions = 25 µM; quantity = inhibition; result = 0%
SMILES = CCC(CC)COC(=O)[C@H](C)N[P@](=O)(OC[C@H]1O[C@@](C#N)(c2ccc3c(N)ncnn23)[C@H](O)[C@@H]1O)Oc1ccccc1; target or system = Severe acute respiratory syndrome coronavirus 2; assay = viral replication, inhibitor, qPCR; system = Vero C1008; conditions = 1 µM; quantity = inhibition; result = 94.2%
SMILES = Nc1ncnc2c([C@@H]3N[C@H](CO)[C@@H](O)[C@H]3O)c[nH]c12; target or system = Marburg virus; assay = viral replication; system = HeLa, Angola; conditions = 25 µM; quantity = inhibition; result = 93.8%
SMILES = C=C(NC(=O)C(=C)NC(=O)c1csc(C2=N[C@@H]3c4csc(n4)[C@H]4NC(=O)c5csc(n5)[C@H]([C@](C)(O)[C@@H](C)O)NC(=O)[C@H]5CSC(=N5)/C(=C/C)NC(=O)[C@H]([C@@H](C)O)NC(=O)c5csc(n5)[C@]3(CC2)NC(=O)[C@H](C)NC(=O)C(=C)NC(=O)[C@H](C)NC(=O)[C@H]([C@@H](C)CC)N[C@@H]2C=Cc3c([C@H](C)O)cc(nc3[C@H]2O)C(=O)O[C@@H]4C)n1)C(N)=O; target or system = Enterovirus C; assay = viral replication, refers to: Gaussia luciferase; system = HeLa; conditions = 10 µM, 48 h; quantity = inhibition; result = 92.8%
SMILES = CC[C@H](C)[C@H](NC(=O)[C@H](CC(C)C)NC(=O)[C@H](Cc1c[nH]c2ccccc12)NC(=O)[C@H](CCC(N)=O)NC(=O)[C@@H](NC(=O)[C@H](Cc1ccccc1)NC(=O)[C@H](C)NC(=O)[C@H](CCCCNC(=O)COCCOCCNC(=O)COCCOCCNC(=O)CC[C@H](NC(=O)CCCCCCCCCCCCCCCCCCC(=O)O)C(=O)O)NC(=O)[C@H](CCC(N)=O)NC(=O)[C@H](C)NC(=O)[C@@H](NC(=O)[C@H](CCCCN)NC(=O)[C@H](CC(=O)O)NC(=O)[C@H](CC(C)C)NC(=O)C(C)(C)NC(=O)[C@@H](NC(=O)[C@H](CO)NC(=O)[C@H](Cc1ccc(O)cc1)NC(=O)[C@H](CC(=O)O)NC(=O)[C@H](CO)NC(=O)[C@@H](NC(=O)[C@H](Cc1ccccc1)NC(=O)[C@@H](NC(=O)CNC(=O)[C@H](CCC(=O)O)NC(=O)C(C)(C)NC(=O)[C@@H](N)Cc1ccc(O)cc1)[C@@H](C)O)[C@@H](C)O)[C@@H](C)CC)[C@@H](C)CC)C(C)C)C(=O)N[C@@H](C)C(=O)NCC(=O)NCC(=O)N1CCC[C@H]1C(=O)N[C@@H](CO)C(=O)N[C@@H](CO)C(=O)NCC(=O)N[C@@H](C)C(=O)N1CCC[C@H]1C(=O)N1CCC[C@H]1C(=O)N1CCC[C@H]1C(=O)N[C@@H](CO)C(N)=O; assay = refers to: anti-drug antibodies; system = healthy human subjects; conditions = 1.5 mg multiple ascending, titer increase ≥4-fold; quantity = subjects with treatment-boosted ADA; result = 0%
SMILES = Cn1cnc(Cn2c(=O)[nH]/c(=N\c3cc4cn(C)nc4cc3Cl)n(Cc3cc(F)c(F)cc3F)c2=O)n1; system = human, severe renal impairment; conditions = oral, 375 mg, treatment-related dry mouth, Severe severity; quantity = patients with adverse event; result = 0%
SMILES = CN(CC1CCOC2(CCN(C(=O)C3(c4ccccc4)CCCC3)CC2)C1)C(=O)c1ccccn1 (stereo not shown); target or system = Venezuelan equine encephalitis virus; assay = viral replication; conditions = 40 µM; quantity = inhibition; result = 60%
SMILES = CC(C)(C)C(O)(CCc1ccc(Cl)cc1)Cn1cncn1 (stereo not shown); target or system = Xanthomonas oryzae pv. oryzicola; assay = bacterial growth; conditions = 128 µg/mL; quantity = inhibition; result = 100%
SMILES = O=C(Nc1ccccc1F)c1cc2c(=O)n3ccccc3nc2n1Cc1ccccc1; target or system = Severe acute respiratory syndrome coronavirus 2; assay = viral replication, inhibitor, qPCR; system = Vero C1008; conditions = 1 µM; quantity = inhibition; result = 83.5%
SMILES = CNC(=O)[C@@H](NC(=O)[C@H](CC(C)C)[C@H](O)C(=O)NO)C(C)(C)C; target or system = Daboia russelii venom proteases (SVMP); assay = protease activity, inhibitor; system = MP population; conditions = 1 µM, together with: azocasein substrate; how to read = relative to: venom alone; quantity = remaining activity; result = 65.4% and 67.7% and 64.7%
